Measured values from different studies.
Each numbered part is a random draw from the data of one study; scales do not carry over between parts. Positions count from the first letter of the parent shown.

Sample 1
Target: CCNA2, cyclin fold, Cln2 fusion (human)
Technique: yeast growth competition, sequencing
Sample: yeast
Notes: strong parent motif
Relative to: not given
Direction: higher = stronger binding
Parent: E2F1 docking peptide (human); PPVKRRLDLETDH; partner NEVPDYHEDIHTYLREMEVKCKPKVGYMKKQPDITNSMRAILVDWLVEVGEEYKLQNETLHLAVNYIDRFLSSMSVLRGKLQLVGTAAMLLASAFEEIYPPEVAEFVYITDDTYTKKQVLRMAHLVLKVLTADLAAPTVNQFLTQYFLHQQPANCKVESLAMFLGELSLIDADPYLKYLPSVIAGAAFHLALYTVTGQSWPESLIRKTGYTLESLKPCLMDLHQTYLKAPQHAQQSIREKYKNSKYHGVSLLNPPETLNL
`PPVKRRTDLETDH [L7T]`: “normalised enrichment score” 0.443.
`PPVKRRLNLETDH [D8N]`: “normalised enrichment score” 5.81.
Under “normalised enrichment score”, `PPVKRRLHLETDH [D8H]` is recorded as 2.95.
`PPVKRRLELETDH [D8E]` — result for “normalised enrichment score”: 3.39.
`PPVKRRGDLETDH [L7G]`: “normalised enrichment score” 0.224.
For `PAVKRRLDLETDH [P2A]`, “normalised enrichment score” read 3.52.
For `PPVKRRLRLETDH [D8R]`, “normalised enrichment score” read 4.25.
Under “normalised enrichment score”, `PPVKRRLYLETDH [D8Y]` is recorded as 3.13.

Sample 2
Target: PABPC1L2, full length, GST fusion (mouse, UniProt A0ABA7IW68)
Technique: RNAcompete
Form: RNA
Sample: in vitro
Concentration: 20 nM
Notes: 7-mer, probes averaged, single round
Relative to: mean of 7-mers
Direction: higher = stronger binding
Target sequence (chain): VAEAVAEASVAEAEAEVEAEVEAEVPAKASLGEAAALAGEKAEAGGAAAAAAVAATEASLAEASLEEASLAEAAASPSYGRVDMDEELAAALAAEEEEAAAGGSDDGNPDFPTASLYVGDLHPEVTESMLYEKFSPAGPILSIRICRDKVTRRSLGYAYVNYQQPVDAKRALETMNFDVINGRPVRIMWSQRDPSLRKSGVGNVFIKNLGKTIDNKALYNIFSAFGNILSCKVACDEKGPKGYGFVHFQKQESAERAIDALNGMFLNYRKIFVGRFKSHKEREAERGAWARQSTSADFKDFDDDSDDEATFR
With `CUUCUCG` the 7-mer Z-score was -0.458.
For `UGAUAAU`, the 7-mer Z-score was -0.0681.
`AGCCUAA` gave a 7-mer Z-score of -0.166.
The 7-mer Z-score of `ACCUUGC` is reported as -0.3.
For `ACUUAAA`, the 7-mer Z-score was 0.782.
`GAACUUU` has a 7-mer Z-score of -0.206.

Sample 3
Target: Transcriptional repressor CTCF (CTCF, Homo sapiens, UniProt P49711, residues 1-727, full length assumed)
Technique: protein-binding microarray
Form: double-stranded DNA, one strand shown
Sample: in vitro
Concentration: not given
Notes: k-mer, scored over probes, only values ≥0.25
Direction: higher = stronger binding
Residues (chain): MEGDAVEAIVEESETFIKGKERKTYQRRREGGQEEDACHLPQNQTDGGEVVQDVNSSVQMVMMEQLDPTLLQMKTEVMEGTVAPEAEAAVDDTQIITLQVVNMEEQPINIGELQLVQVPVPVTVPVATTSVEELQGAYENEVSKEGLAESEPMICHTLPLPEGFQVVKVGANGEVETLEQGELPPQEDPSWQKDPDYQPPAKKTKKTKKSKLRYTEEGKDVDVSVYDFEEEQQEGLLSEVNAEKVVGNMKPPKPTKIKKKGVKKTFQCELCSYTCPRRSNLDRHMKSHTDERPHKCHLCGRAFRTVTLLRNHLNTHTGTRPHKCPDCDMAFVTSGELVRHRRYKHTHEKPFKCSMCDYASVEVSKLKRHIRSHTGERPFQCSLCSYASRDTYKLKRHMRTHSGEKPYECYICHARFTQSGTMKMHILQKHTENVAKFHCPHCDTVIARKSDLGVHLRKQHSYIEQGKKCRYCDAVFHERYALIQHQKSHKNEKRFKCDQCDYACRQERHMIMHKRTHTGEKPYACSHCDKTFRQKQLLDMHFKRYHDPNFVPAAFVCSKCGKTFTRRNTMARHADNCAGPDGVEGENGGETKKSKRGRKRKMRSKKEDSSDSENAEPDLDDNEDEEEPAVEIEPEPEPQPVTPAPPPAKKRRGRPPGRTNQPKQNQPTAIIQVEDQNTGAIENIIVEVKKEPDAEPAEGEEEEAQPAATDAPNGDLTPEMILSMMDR
`AAAGGCCG` gave an E-score of 0.293.
The E-score of `ATAAATTA` is reported as 0.411.
With `AATAAGTA` the E-score was 0.318.
`ATGCGCTG` gave an E-score of 0.27.
`AACATAAC` gave an E-score of 0.271.
The E-score of `AGTTGATA` is reported as 0.254.
`TATAAATA` gave an E-score of 0.306.

Mixed results
The fold induction of `PhoQ, residues 284 288 289 292 302 303 WSHMKI` is reported as 8.22 (PhoP, residues 12 14 15 18 19 VQALL (Escherichia coli, UniProt P23836); Sort-seq, refers to: YFP reporter; E. coli; PhoQ-PhoP variant library, added: 10 µM Mg2+; relative to: high Mg2+ state, higher = stronger signaling).

Excerpt of the above (mixed results):
The fold induction of `PhoQ, residues 284 288 289 292 302 303 WSHMKI` is reported as 8.22 (PhoP, residues 12 14 15 18 19 VQALL (Escherichia coli, UniProt P23836); Sort-seq, refers to: YFP reporter; E. coli; PhoQ-PhoP variant library, added: 10 µM Mg2+; relative to: high Mg2+ state, higher = stronger signaling).
